Assay results of several laboratories.
Lines come from different studies, so protocols differ. Values joined by “and” are separate records of one study, mostly repeats; a detail may differ. ± marks the error that the study gave. ≈ marks a conversion by molar mass, not a printed value.

The Cmax of CC1=C2C[C@H]3[C@@H](CC[C@@H]4C[C@H](NS(C)(=O)=O)CC[C@@]43C)[C@@H]2CC[C@@]2(C1)O[C@@H]1C[C@H](C)CN[C@H]1[C@H]2C is reported as 28.2 ng/mL (patients, plasma; oral, 60 mg single, day -7, cycle 1).
Cc1[nH]c(=O)c(CNC(=O)c2ccc(Br)nc2)c2c1CCCC2 has a kinetic solubility of 239 µg/mL (≈ 635 µM) (U-HPLC; 20% DMSO in water).
CCCOc1ccc(S(=O)(=O)NCCC2CCCN2C)cc1-c1nc2c(CCC)nn(C)c2c(=O)[nH]1 (stereo not drawn): “subjects with drug-related abdominal discomfort” 7% (human adolescents after Fontan palliation; oral, dose not given, 5 days, all dose cohorts).
The Vss/F of COc1cc(OC)c(/C=C/S(=O)(=O)Cc2ccc(OC)c(NCC(=O)O)c2)c(OC)c1 is reported as 574 ± 498 L (cancer patients, phase I, plasma; oral, 560 mg twice daily, day 21 cycle 1).
[2H]C([2H])([2H])Oc1cc2c(cc1OC([2H])([2H])[2H])C1CC(=O)C(CC(C)C)CN1CC2 (stereo not drawn) has a dose-normalized AUC(0-inf) of 22.5 ng·h/mL (measured: deuterated total (α+β)-HTBZ; healthy human volunteers, plasma; oral, 12 mg single dose, standard meal).
CS(=O)(=O)Nc1ccc(C(=O)O[C@@H](Cc2c(Cl)c[n+]([O-])cc2Cl)c2ccc(OC(F)F)c(OCC3CC3)c2)cc1OCC1CC1 gave a Cmax of 0.928 ng/mL (human, plasma; inhaled, 2000 µg twice daily, day 1, multi-dose dry powder inhaler).
C[C@]12CC[C@@H]3c4ccc(O)cc4CC[C@H]3[C@@H]1C[C@@H](O)[C@@H]2O: “mean serum concentration” 0 ng/mL (GC-MS; breast cancer women on NSAI, serum; vaginal, 0.03 mg, 6 h, day 0).
For Cl.NCCc1ccc(Oc2ccc(-c3noc(-c4ccc(O)cc4)n3)cc2)cc1, “unchanged drug in faeces” read 0.42% (male Sprague Dawley rats; oral, 30 mg/kg, 0 to 48 h; relative to: dose).
With CC[C@H](C)[C@@H]1NC(=O)[C@H](Cc2ccc(O)cc2)NC(=O)[C@@H](N)CSSC[C@@H](C(=O)N2CCC[C@H]2C(=O)N[C@@H](CC(C)C)C(=O)NCC(N)=O)NC(=O)[C@H](CC(N)=O)NC(=O)[C@H](CCC(N)=O)NC1=O the half-life was 0.313 ± 0.0317 h (microdialysis, radioimmunoassay; knock-out male mice lacking compound, hippocampus extracellular fluid; intraperitoneal, 12 µg total, time to half of Cmax).
C=CC(=O)N(C)CCOc1c(N)ncnc1-c1cc(F)cc(NC(=O)c2ccc(C3CC3)cc2F)c1C: “subjects with serious adverse event” 1.6% (measured: syncope; human, multiple ascending dose; oral, 25 mg, 12 days).
Under “Cmax (geometric mean)”, CNC(=O)c1ccc(-c2cnc3ncc(Cc4ccc5ncccc5c4)n3n2)cc1F is recorded as 1440 ng/mL (human, moderate hepatic impairment (Child-Pugh B), plasma; oral, 200 mg single dose).
Under “isoaspartate formation half-life”, CC[C@H](C)[C@@H]1NC(=O)[C@H](CCCNC(=N)N)NC(=O)[C@H](CC(=O)O)NC(=O)[C@H](CC(C)C)NC(=O)[C@H](CCCCN)NC(=O)[C@H](CC(C)C)NC(=O)CNC(=O)[C@H](Cc2ccccc2)NC(=O)[C@@H](NC(=O)CNC(=O)[C@H](CCCCN)NC(=O)[C@H](CO)NC(=O)[C@H](CC(C)C)NC(=O)CNC(=O)[C@H](CCCCN)NC(=O)[C@H](CCCCN)NC(=O)[C@H](CC(N)=O)NC(=O)[C@H](C)NC(=O)CNC(=O)[C@H](CCCCN)NC(=O)[C@H](Cc2ccc(O)cc2)NC(=O)[C@H](CCCCN)NC(=O)[C@H](CCCNC(=N)N)NC(=O)[C@H](C)NC(=O)[C@H](CC(N)=O)NC(=O)[C@@H]2CCCN2C(=O)[C@H](Cc2c[nH]cn2)NC(=O)[C@H](CCC(=O)O)NC(=O)[C@H](CCC(N)=O)NC(=O)CNC(=O)[C@@H]2CCCN2)CSSC[C@@H](C(=O)O)NC(=O)CNC(=O)[C@H](CC(C)C)NC(=O)CNC(=O)[C@H](CO)NC(=O)[C@H](CCSC)NC(=O)[C@H](CO)NC(=O)CNC1=O is recorded as roughly 120 h (100 µM, pH 7.4 or 7.7, 37 °C).
With CCCC[C@H](NC(C)=O)C(=O)N[C@H]1CCC(=O)NC[C@@H](C(=O)N[C@@H](Cc2c[nH]c3ccccc23)C(N)=O)NC(=O)[C@H](CCCNC(=N)N)NC(=O)[C@@H](Cc2ccccc2)NC(=O)[C@H](Cc2c[nH]cn2)NC1=O the Tmax was 0.25 h (female rat, plasma; subcutaneous, 5 mg/kg/day, multiple doses, once daily).
With CCC[C@@]1(CCc2ccccc2)CC(O)=C([C@H](CC)c2cccc(NS(=O)(=O)c3ccc(C(F)(F)F)cn3)c2)C(=O)O1 the AUC(0-inf) was 4870 ng·h/mL (male Sprague-Dawley rat, plasma; intravenous, 1 mg/kg).
For COc1cc2c(cc1OC)[C@@H]1Cc3ccc(OC)c(OC)c3CN1CC2, the measured concentration was 3180 ± 51.4 ng/mL (rat plasma QC sample; 3200 ng/mL nominal, 24 h, 23 °C, high QC level storage stability).
For O=C1CN(/N=C/c2ccc(-c3ccc([N+](=O)[O-])cc3)o2)C(O)=N1, “hepatocyte vacuolization score” read 0 (Sprague-Dawley rat, male, liver; oral, 100 mg/kg, 6 h, single low dose; direction not given).
The AUC(0-36 h) of CC(C)=CCC[C@](C)(O[C@@H]1O[C@H](CO)[C@@H](O)[C@H](O)[C@H]1O)[C@H]1CC[C@]2(C)[C@@H]1[C@H](O)C[C@@H]1[C@@]3(C)CC[C@H](O[C@@H]4O[C@H](CO)[C@@H](O)[C@H](O)[C@H]4O[C@@H]4O[C@H](CO)[C@@H](O)[C@H](O)[C@H]4O)C(C)(C)[C@@H]3CC[C@]12C is reported as 25900 ± 8800 ng·h/mL (Sprague Dawley rat, male, plasma; oral, 42 mg/kg, in white ginseng extract).
Nc1cc[nH]c(=O)n1 has a terminal half-life of 20.3 h (UHPLC-MS; male CD-1 mice, plasma; intravenous, 1 mg/kg, from 4 h postdose).
COc1ccc2cc3[n+](cc2c1OC)CCc1cc2c(cc1-3)OCO2 has a measured concentration of 638 ± 19.9 ng/mL (rat plasma QC sample; 640 ng/mL nominal, 24 h, 23 °C, high QC level storage stability).
C[C@@H](O)[C@H]1C(=O)N2C(C(=O)O)=C(S[C@@H]3CN[C@H](C(=O)N(C)C)C3)[C@H](C)[C@H]12: “time above MIC” 39% (microdialysis; pig, Danish Landrace, cortical bone; intravenous, 1000 mg over 10 min, 450 min dosing interval, added: 0.25 µg/mL MIC; relative to: dosing interval).
For CCN(CC)CCNC(=O)c1c(C)[nH]c(/C=C2\C(=O)Nc3ccc(F)cc32)c1C, “maximum trough plasma concentration” read 64.2 ng/mL (human, plasma; oral, 15 mg/m2, day 21).
With CNCc1ccc(-c2[nH]c3cc(F)cc4c3c2CCNC4=O)cc1 the AUC(0-t) was 915 ng·h/mL (human patients, plasma; oral, 40 mg once daily, day 1, 24 h, single dose, arithmetic mean).
For COc1ccc2[nH]c([S+]([O-])Cc3ncc(C)c(OC)c3C)nc2c1 (stereo not drawn), the t1/2 was 2.54 ± 0.7 h (UHPLC-MS/MS, noncompartmental; healthy Chinese volunteers, CYP2C19 *2/*3, plasma; oral, 20 mg single dose).
With CCCC[C@@H]1NC(=O)[C@@H](NC(=O)[C@H](CCC(=O)O)NC(=O)CNC(=O)CN2CCN(CC(=O)O)CCN(CC(=O)O)CCN(CC(=O)O)CC2)CCCCNC(=O)C[C@@H](C(N)=O)NC(=O)[C@H](C(C)C)NC(=O)[C@@H]2CCCN2C(=O)[C@H](CCCNC(=N)N)NC(=O)CNC(=O)[C@H](Cc2c[nH]c3ccccc23)NC(=O)[C@H](CCCNC(=N)N)NC(=O)[C@@H](Cc2ccccc2)NC(=O)[C@H](Cc2c[nH]cn2)NC(=O)[C@H](CCC(=O)O)NC1=O [indium-111 labelled] the tissue uptake was 0.05 ± 0.01 %ID/g (C57 mice, B16/F10 lung metastatic melanoma, pancreas; intravenous, 0.037 MBq, 2 h).
Under “tissue to peel content ratio”, COc1ccc(-c2cc(=O)c3cc(OC)c(OC)c(OC)c3o2)cc1OC is recorded as 0.016% (C57BL/6 mouse, male, testes; oral, 1% w/w in diet, 6 weeks, orange peel extract diet; relative to: content in orange peel).
For CC(C)C[C@H](NC(=O)[C@H](CC(C)C)NC(=O)[C@@H](Cc1c[nH]c2ccccc12)NC(=O)[C@H](Cc1ccccc1)NC(=O)[C@@H](NC(=O)[C@@H](N)CCCCN)[C@@H](c1ccccc1)c1c[nH]c2ccccc12)C(N)=O, the HPLC retention was 44.3 %B (RP-HPLC Kinetex Biphenyl; acetonitrile/water TFA gradient).
O=C1CCc2ccc(OCCCCN3CCN(c4cccc(Cl)c4Cl)CC3)cc2N1 gave a terminal half-life of 110 ± 14.3 h (healthy Japanese men, CYP2D6 EM, plasma; oral, 3 mg aripiprazole single, added: fluvoxamine 100 mg/day).
The α-helicity of CC[C@H](C)[C@H](NC(=O)CNC(=O)[C@H](Cc1ccccc1)NC(C)=O)C(=O)N[C@@]1(C)CCCC=CCCC[C@@](C)(C(=O)N[C@@H](CC(C)C)C(=O)N[C@@H](CCCCN)C(=O)N[C@H](C(N)=O)[C@@H](C)O)NC(=O)[C@H](CC(N)=O)NC(=O)[C@H]([C@@H](C)O)NC(=O)[C@H](CC(C)C)NC1=O is reported as 43.8% (circular dichroism; PBS with 50% trifluoroethanol; 0.3 mg/mL, pH 7.4, 25 °C).
CC(C)=CCC[C@](C)(O[C@@H]1O[C@H](CO)[C@@H](O)[C@H](O)[C@H]1O)[C@H]1CC[C@]2(C)[C@@H]1[C@H](O)C[C@@H]1[C@@]3(C)CC[C@H](O[C@@H]4O[C@H](CO)[C@@H](O)[C@H](O)[C@H]4O[C@@H]4O[C@H](CO)[C@@H](O)[C@H](O)[C@H]4O)C(C)(C)[C@@H]3CC[C@]12C has an AUC of 664 ± 285 ng·h/mL (Sprague-Dawley rat, plasma; oral, 200 mg/kg ginsenoside Rb1).
Cc1nc2cccc(OCC(C)(C)C(=O)NC(C)C)c2c(N)c1C(=O)O has a Cmax of 317 nM (Sprague-Dawley rat Crl:CD(SD), both sexes, plasma; oral, food admix, 100 mg/kg/day, day 7).
COc1cc(/C=C/C(=O)CC(=O)/C=C/c2ccc(O)c(OC)c2)ccc1O: “brain uptake ratio” 2.21 (I-125 label; C57BL/6J mouse, cerebral cortex; intranasal vs intraperitoneal, 10 µg/mouse IN, 100 µg/mouse IP, 24 h; relative to: intranasal over intraperitoneal).
For CCc1ccc(Cc2ccc3c(c2)[C@]2(OC3)O[C@H](CO)[C@@H](O)[C@H](O)[C@H]2O)cc1, the tissue/plasma ratio was 492 ± 101 (Wistar rat, male, kidney; oral, dose not given, 8 h; relative to: kidney over plasma concentration).
Cn1c(-c2ccc(C(N)=O)cc2F)nnc1C(C)(C)Oc1c(F)cc(Cl)cc1F gave a Tmax median of 1.25 h (young Japanese adults, plasma; oral, 50 mg single dose, day 1, high-dose multiple-dose study).
COc1cccc(N2CCN(C3=Nc4c(F)cccc4[C@H](CC(=O)O)N3c3cc(C(F)(F)F)ccc3OC)CC2)c1: “terminal elimination rate constant” 1.04e-05 ± 6.11e-06 s⁻¹ (healthy women, plasma; intravenous, 240 mg once daily, day 14, 30-min infusion).
For COc1ccc(-c2cc(=O)c3c(O)c(OC)c(OC)c(OC)c3o2)cc1OC, “tissue to peel content ratio” read 0.238% (C57BL/6 mouse, male, kidney; oral, 1% w/w in diet, 6 weeks, orange peel extract diet; relative to: content in orange peel).
Under “volume of distribution (Vz)”, CC(=O)O[C@H]1C(=O)[C@@]2(C)[C@H]([C@H](OC(=O)c3ccccc3)[C@]3(O)C[C@H](OC(=O)[C@H](O)[C@@H](NC(=O)c4ccccc4)c4ccccc4)C(C)=C1C3(C)C)[C@]1(OC(C)=O)CO[C@@H]1C[C@@H]2O is recorded as 226 ± 71.9 L/m² (noncompartmental analysis; human, plasma; intravenous, 80 mg/m^2, day 8, DL2 geometric mean, added: onalespib 150 mg/m^2).
For O=C(O)[C@H]1/C(=C/CO)O[C@@H]2CC(=O)N21, the measured concentration was 2410 ± 92 ng/mL (rat plasma; 2400 ng/mL, three freeze-thaw cycles).
With Cc1cc(Nc2ncc(Cl)c(Nc3ccccc3S(=O)(=O)C(C)C)n2)c(OC(C)C)cc1C1CCNCC1 the Tss,max was 6 h and 8.1 h (measured: unbound drug; human, plasma; oral, 750 mg/day).
The unbound fraction of C[C@@H]1CCN(C(=O)CC#N)C[C@@H]1N(C)c1ncnc2[nH]ccc12 is reported as 0.781 (equilibrium dialysis; SIDM rats, fresh plasma; 10 µg/mL, 24 h, 37 °C).
For CN1CC[C@@H](NC(=O)Nc2ccc(C#N)cc2)C[C@@H]1c1nc2ccccc2[nH]1, the unbound Cmax was 75.8 ± 19.2 ng/mL (human, moderate hepatic impairment, plasma; oral, 100 mg, single dose, fasted).
Cc1cnc(NC(=O)C2=C(O)c3ccccc3S(=O)(=O)N2C)s1 — result for “hepatocyte necrosis score”: 0 (Sprague-Dawley rat, male, liver; oral, 0.4 mg/kg, 24 h, single low dose; direction not given).
Under “total body clearance”, `colistin B methanesulfonate` is recorded as 9.69 ± 3.95 mL/min/kg (one-compartment PK model; rat; i.p., 20 mg/kg colistin base activity).
CS/C(S)=N/CCCC[S+](C)[O-] (racemic): “mRNA fold change” 2.28 (RT-PCR, measured: Cyp3a23/1; rat, liver; oral gavage, 200 mg/kg, dosed for four days; relative to: vehicle).
O=C(CCCCCCC(=O)Nc1ccccc1)NO gave an AUC(0-7 h) of 24.4 µM·h (patients, serum; oral, 800 mg, cycle 1 day 2, added: flavopiridol 30+30 mg/m2).
COc1cc(C(F)(F)F)ccc1OC[C@@H]1[C@H]2CN(Cc3nc4ncccc4n3C)C[C@@H]12 has a logP of 3.3.
